Measurements pooled from the literature.
Parts stem from different laboratories: compare values within a part only.

Set 1 — technique: RNA Bind-n-Seq; molecule type: RNA; medium: in vitro; tested at: 200 nM; setting: whole 134-nt RNA, ends assumed; with: 150 mM KCl; baseline: input library; direction: higher = stronger binding
Target: Ras GTPase-activating protein-binding protein 1, full length (G3BP1, Homo sapiens, UniProt Q13283)
UniProt Q13283, sequence (whole entry, looked up): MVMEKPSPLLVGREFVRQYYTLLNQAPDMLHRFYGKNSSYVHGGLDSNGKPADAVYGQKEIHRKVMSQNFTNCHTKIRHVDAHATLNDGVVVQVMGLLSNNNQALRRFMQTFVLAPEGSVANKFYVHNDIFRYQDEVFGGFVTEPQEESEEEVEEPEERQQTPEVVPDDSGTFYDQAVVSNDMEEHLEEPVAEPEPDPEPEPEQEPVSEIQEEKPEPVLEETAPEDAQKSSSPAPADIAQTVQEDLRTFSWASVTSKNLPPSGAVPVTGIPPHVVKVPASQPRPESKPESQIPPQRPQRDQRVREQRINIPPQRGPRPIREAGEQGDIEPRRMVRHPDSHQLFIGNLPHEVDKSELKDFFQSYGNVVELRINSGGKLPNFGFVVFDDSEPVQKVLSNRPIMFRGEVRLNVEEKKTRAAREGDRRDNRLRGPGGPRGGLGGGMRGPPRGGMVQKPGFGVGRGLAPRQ
Sequence | log2 enrichment
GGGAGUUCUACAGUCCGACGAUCCCUGUGCUACACAUCGUAUGUACCGAAUCGGGGUUUUUUGGUUUUUUGGGGUUUUUUGGGAAAGUAUUAUGUUACGCCGUUCGGAUCUGCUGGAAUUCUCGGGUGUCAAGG | -0.74
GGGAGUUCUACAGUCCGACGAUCAGUCCUGUGCUACACAUCGUAUGUACCGAAUCGGGAAAAAGGGUGGGUUUUUUUGGGAAAGUAUUAUGUUACGCCGUUCGGAUCUGCACUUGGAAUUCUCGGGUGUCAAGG | 0.0612
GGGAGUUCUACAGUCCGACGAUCUAACUUUAGAGGAGGAUCUGAUGGAUAUGGCAGUGUACGUGGAUUUGGGGAUGGCUAUAAUGGGUAUGGAGGAGGACCUGGAGGUGGCAAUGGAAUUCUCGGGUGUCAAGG | 0.322
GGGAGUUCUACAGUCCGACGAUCUUAUCACCAGGACUGCCAUGUUCCCAGGGCUCCAGCCCCUGGAGAGGGAGAGGGCACAUCCUGGGUAUGCCGCCAGUGUGUCUUUGCGAUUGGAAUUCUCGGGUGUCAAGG | -0.649
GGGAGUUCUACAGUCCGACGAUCUGGGAGGUGGAUCUUGUUUAUUUUUUUAGCUCAUUUCCAGGGGUGGGAAUUUUUUUUUAAUAUGUGUCAUGAAUAAAGUUGUUUUUGAAAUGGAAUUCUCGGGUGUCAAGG | -0.0934
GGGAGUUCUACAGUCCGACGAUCAAGUCCUGUGCUACACAUCGUAUGUACCGAAUCGGGUUUUUUUGGGUUUGGGAGGGAAAGUAUUAUGUUACGCCGUUCGGAUCUGCACUUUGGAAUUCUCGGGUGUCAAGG | 0.156

Set 2 — technique: RNA Bind-n-Seq; molecule type: RNA; medium: in vitro; tested at: not given; baseline: input RNA pool; direction: higher = stronger binding
Target: RING finger protein unkempt homolog, zinc fingers 1-6, GST-SBP tag (UNK, Homo sapiens, UniProt Q9C0B0, residues 30-357)
UniProt Q9C0B0, sequence (30-357, looked up): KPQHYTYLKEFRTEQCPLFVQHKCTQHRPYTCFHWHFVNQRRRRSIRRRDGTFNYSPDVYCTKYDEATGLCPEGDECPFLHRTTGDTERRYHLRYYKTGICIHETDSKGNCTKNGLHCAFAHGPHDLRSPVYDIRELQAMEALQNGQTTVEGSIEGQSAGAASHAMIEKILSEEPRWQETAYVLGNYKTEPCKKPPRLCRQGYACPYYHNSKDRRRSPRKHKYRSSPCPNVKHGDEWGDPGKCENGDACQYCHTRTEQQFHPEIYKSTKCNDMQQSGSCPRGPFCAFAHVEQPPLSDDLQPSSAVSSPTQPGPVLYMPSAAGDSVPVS
Setting: RNA with constant flanks, human-mouse chimeric sites, ends assumed
Sequence | bound/input enrichment
GGGAGUUCUACAGUCCGACGAUCGAGUCGAGCAAACUUGAAACAAUUCGUUUUACAAAAACCUCAGUGUUCACUUGCUUGGCGAUAGCAUAUUGGGAUUUUAGGUUCUGGAAGGAGAACUGACGAUGAUGCUGCCGCUGCUGCCAACAGAGGAUUGAGCAUCA | 0.365 ratio
GGGAGUUCUACAGUCCGACGAUCACCAUUUUCGCGGUUCAAGGUUUUGUGGUAGUUCACUUACGGUAUUAAAUUAUUAUUCUGCUUAGCUUAUAAUAAGGAUUACAAUUGUUAAAGAGGUUACUGAAUGUUACUCUGAAACUUCAACAGAGGAUUGAGCAUCA | 0.925 ratio
GGGAGUUCUACAGUCCGACGAUCGAUCAUGAACCACCAUCAGAAAUGAAGAUGAGAUUACCCAGACGAGCCAAAACAGCUGCGCUACAGAAAAAGUAAACUAACCUUGCAGAGUUCCUUAAAUGAAGAUCAAGUUAAGAGAGCCAACAGAGGAUUGAGCAUCA | 0.333 ratio
GGGAGUUCUACAGUCCGACGAUCUGGCGCCUGCGCUCCCCACUCGUGUUUUUAAGUGUAUUUUUAUAAGACAUGUGUAUUUACAAUUGAGCUUUUGUUACAUAAUGCUGAAAUGCUACUGGAGAUUAUGAAAAAUGUUUCAAUCAACAGAGGAUUGAGCAUCA | 0.149 ratio

Set 3 — technique: universal PBM; molecule type: double-stranded DNA, one strand shown; medium: in vitro; tested at: 600 nM; direction: higher = stronger binding
Target: Sal-like protein 4, full length isoform A (SALL4, Homo sapiens, UniProt Q9UJQ4, residues 1-1053)
UniProt Q9UJQ4, sequence (whole entry, looked up): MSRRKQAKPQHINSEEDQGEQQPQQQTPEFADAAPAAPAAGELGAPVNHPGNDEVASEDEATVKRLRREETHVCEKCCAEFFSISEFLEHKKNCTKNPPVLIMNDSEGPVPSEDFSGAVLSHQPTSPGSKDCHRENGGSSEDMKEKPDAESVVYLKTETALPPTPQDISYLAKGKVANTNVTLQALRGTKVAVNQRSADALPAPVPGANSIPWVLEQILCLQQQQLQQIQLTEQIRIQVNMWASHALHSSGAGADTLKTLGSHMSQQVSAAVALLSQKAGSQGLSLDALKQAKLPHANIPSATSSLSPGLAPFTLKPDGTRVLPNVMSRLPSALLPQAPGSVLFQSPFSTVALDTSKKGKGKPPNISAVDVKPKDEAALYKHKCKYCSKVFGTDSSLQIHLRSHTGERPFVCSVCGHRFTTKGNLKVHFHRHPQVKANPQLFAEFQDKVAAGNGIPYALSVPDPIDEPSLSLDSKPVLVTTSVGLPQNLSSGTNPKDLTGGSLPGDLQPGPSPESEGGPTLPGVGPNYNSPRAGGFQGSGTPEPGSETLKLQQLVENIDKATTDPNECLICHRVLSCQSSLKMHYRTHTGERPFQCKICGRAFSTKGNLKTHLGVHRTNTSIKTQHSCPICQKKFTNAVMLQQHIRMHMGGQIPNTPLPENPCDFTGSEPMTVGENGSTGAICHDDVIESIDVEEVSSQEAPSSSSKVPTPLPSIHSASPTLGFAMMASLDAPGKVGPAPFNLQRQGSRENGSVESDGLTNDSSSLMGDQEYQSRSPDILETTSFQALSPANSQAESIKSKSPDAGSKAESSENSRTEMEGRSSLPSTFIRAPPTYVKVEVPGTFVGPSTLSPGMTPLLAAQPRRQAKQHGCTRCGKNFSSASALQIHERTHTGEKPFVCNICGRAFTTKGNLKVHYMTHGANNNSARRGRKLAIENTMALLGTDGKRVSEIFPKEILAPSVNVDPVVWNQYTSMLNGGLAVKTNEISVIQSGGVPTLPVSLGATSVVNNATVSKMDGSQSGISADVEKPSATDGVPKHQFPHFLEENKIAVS
Setting: 8-mer, flanks averaged, mean of replicates
Sequence | E-score
AATGACAC | 0.134
GCGGAGTA | -0.167
ACTTTCCG | 0.0166
CGACACGA | -0.0984
AAACCTTT | 0.0438
CCGGTGGC | -0.377

Single results of other studies
Substance | target | test | system | setting | scale | endpoint | result
PhoQ, residues 284 288 289 292 302 303 NLMGRA | PhoP, residues 12 14 15 18 19 AQCLL (Escherichia coli, UniProt P23836) | Sort-seq, item: YFP reporter | E. coli | PhoQ-PhoP variant library, with: 10 µM Mg2+ | baseline: high Mg2+ state, higher = stronger signaling | fold induction | 4.34

A few entries again (set 2):
Sequence | bound/input enrichment
GGGAGUUCUACAGUCCGACGAUCGAGUCGAGCAAACUUGAAACAAUUCGUUUUACAAAAACCUCAGUGUUCACUUGCUUGGCGAUAGCAUAUUGGGAUUUUAGGUUCUGGAAGGAGAACUGACGAUGAUGCUGCCGCUGCUGCCAACAGAGGAUUGAGCAUCA | 0.365 ratio
GGGAGUUCUACAGUCCGACGAUCACCAUUUUCGCGGUUCAAGGUUUUGUGGUAGUUCACUUACGGUAUUAAAUUAUUAUUCUGCUUAGCUUAUAAUAAGGAUUACAAUUGUUAAAGAGGUUACUGAAUGUUACUCUGAAACUUCAACAGAGGAUUGAGCAUCA | 0.925 ratio
GGGAGUUCUACAGUCCGACGAUCGAUCAUGAACCACCAUCAGAAAUGAAGAUGAGAUUACCCAGACGAGCCAAAACAGCUGCGCUACAGAAAAAGUAAACUAACCUUGCAGAGUUCCUUAAAUGAAGAUCAAGUUAAGAGAGCCAACAGAGGAUUGAGCAUCA | 0.333 ratio
